Assay results gathered from unrelated publications.
Compare with care: the assays were run in different laboratories. ± marks the error that the study gave.
UniProt Q9UKP6, sequence (whole entry, looked up): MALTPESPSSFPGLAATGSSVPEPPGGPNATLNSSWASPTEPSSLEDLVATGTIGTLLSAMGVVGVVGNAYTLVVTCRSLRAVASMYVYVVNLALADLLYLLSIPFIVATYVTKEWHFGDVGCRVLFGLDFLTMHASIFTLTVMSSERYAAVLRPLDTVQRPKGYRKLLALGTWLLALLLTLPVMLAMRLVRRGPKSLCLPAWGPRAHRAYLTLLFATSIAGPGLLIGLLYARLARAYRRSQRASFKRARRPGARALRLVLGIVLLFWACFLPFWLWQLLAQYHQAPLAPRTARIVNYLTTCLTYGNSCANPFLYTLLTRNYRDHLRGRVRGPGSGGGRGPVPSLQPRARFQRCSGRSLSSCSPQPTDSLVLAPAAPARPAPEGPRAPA
UniProt P07437, sequence (whole entry, looked up): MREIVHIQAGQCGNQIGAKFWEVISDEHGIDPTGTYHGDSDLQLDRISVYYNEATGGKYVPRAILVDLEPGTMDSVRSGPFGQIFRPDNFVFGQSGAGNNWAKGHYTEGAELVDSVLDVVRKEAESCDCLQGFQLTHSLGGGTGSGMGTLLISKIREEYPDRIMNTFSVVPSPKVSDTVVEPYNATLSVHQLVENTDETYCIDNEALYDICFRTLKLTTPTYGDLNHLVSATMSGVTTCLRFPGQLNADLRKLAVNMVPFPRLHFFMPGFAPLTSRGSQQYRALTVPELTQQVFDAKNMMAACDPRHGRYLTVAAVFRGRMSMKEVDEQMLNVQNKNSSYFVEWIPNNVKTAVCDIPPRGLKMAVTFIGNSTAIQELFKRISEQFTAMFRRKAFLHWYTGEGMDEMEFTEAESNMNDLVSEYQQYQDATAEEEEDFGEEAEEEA

Compound	target or system	test	test system	setting	how to read	endpoint	value
O=C(O)CCCOc1ccc(F)cc1-c1cc(-c2ccccc2C(F)(F)F)n(-c2ccccc2)n1	–	–	Crl:CD(SD) rat, male	intravenous, 25 µg/kg, 14 days post-dose	–	pituitary weight	16.5 ± 1.1 mg
Clc1ccc(-c2ccccc2)cc1	–	–	Sprague-Dawley rats, female, serum	inhalation, 23 µg/rat, 0 h after exposure	–	phosphorus	11 ± 3 mg/dL
O=C1c2c(O)c(=O)ccn2N([C@@H]2c3ccccc3SCc3c2ccc(F)c3F)[C@@H]2COCCN12	–	–	BALB/c mice, plasma	oral, 5 mg/kg baloxavir marboxil, 4 h	–	plasma concentration	25.7 ng/mL
C=C(CN(C(=O)c1c(C(F)F)nn(C)c1F)C1CC1)c1ccc(Cl)cc1Cl	–	static acute toxicity test	zebrafish (Brachydanio rerio)	0.694 mg a.i./L, 24 h	–	mortality	0%
N#C[C@@]1(n2ccc(N)nc2=O)O[C@H](CO)[C@@H](O)[C@H]1O	–	–	mouse CD-1, lung	oral, 30 mg/kg, 7 h	–	lung concentration	1080 ng/g
O=c1ccc2ccc3occc3c2o1	–	post-procedure stability	rat plasma	200 ng/mL, 3 h, room temperature	–	accuracy	115%
COc1cc2c(Oc3ccc4[nH]c(C)cc4c3F)ccnc2cc1OCC1(N)CC1	–	–	paediatric recurrent refractory sarcoma	concentration not given, whole group	–	grade 3 Hematochezia	0%
CC[C@H](C)[C@H](NC(=O)[C@H](Cc1ccccc1)NC(=O)[C@H](CCC(=O)O)NC(=O)[C@H](CCCNC(=N)N)NC(=O)[C@H](C)NC(=O)[C@H](C)NC(=O)[C@H](CCC(N)=O)NC(=O)[C@H](CCC(=O)O)NC(=O)[C@H](CCC(=O)O)NC(=O)[C@H](CC(C)C)NC(=O)[C@H](Cc1ccc(O)cc1)NC(=O)[C@H](CO)NC(=O)[C@H](CO)NC(=O)[C@@H](NC(=O)[C@H](CC(=O)O)NC(=O)[C@H](CO)NC(=O)[C@@H](NC(=O)[C@H](Cc1ccccc1)NC(=O)[C@@H](NC(=O)CNC(=O)[C@H](CCC(=O)O)NC(=O)[C@H](C)NC(=O)CCc1c[nH]cn1)[C@@H](C)O)[C@@H](C)O)C(C)C)C(=O)N[C@@H](C)C(=O)N[C@@H](Cc1c[nH]c2ccccc12)C(=O)N[C@@H](CC(C)C)C(=O)N[C@H](C(=O)N[C@@H](CCCNC(=N)N)C(=O)NCC(=O)N[C@@H](CCCNC(=N)N)C(=O)N[C@@H](CCCCNC(=O)COCCOCCNC(=O)COCCOCCNC(=O)CC[C@H](NC(=O)CCCCCCCCCCCCCCCCC(=O)O)C(=O)O)C(=O)NCC(=O)NCC(=O)N[C@@H](CO)C(=O)N[C@@H](CCCCNc1c(NCCCCCN(O)C(=O)CCC(=O)NCCCCCN(O)C(=O)CCC(=O)NCCCCCN(O)C(C)=O)c(=O)c1=O)C(=O)O)C(C)C [zirconium-89 labelled]	–	ex vivo gamma counting	rat, femur	subcutaneous, 3 nmol/kg, 72 h, together with: [89Zr]-labelled peptide	–	tissue uptake	0.11 %ID/g
Oc1ccc(CCc2cc(O)cc(O)c2)cc1	–	–	human, both sexes, cerebrospinal fluid	–	–	samples above LOQ	0%
CC[C@H](C)[C@@H]1NC(=O)[C@@H]2CCCN2C(=O)[C@H](CC(C)C)NC(=O)[C@H](CC(C)C)NC(=O)CNC(=O)[C@@H](NC(=O)[C@@H](NC(=O)[C@H](CC(=O)O)NC(=O)CNC(=O)[C@@H](NC(=O)[C@H](C)NC(=O)CNC(=O)[C@H](CCCCN)NC(=O)[C@H](CC(C)C)NC(=O)[C@H](CC(C)C)NC(=O)[C@H](CCCCN)NC(=O)CNC(=O)[C@@H](NC(=O)[C@@H](N)CC(C)C)C(C)C)C(C)C)C(C)C)CSSC[C@@H](C(=O)O)NC1=O	–	RNA-seq, item: Il18rap mRNA	mouse traumatic brain injury, frontal cortex and hippocampus	dose not given	baseline: TBI plus compound vs TBI	log2 fold change	-3.3
O=C(c1ccc(Cl)cc1)N1CCN2C(=O)N(OC(=O)N3CCOc4ccccc43)C(=O)C2C1 (stereo not shown)	TUBB (Homo sapiens, UniProt P07437)	MS-based ABPP	SW-620 conditioned medium	10 µM	baseline: compound over DMSO, lower = more inhibition	peptide ratio	1.07
C[C@]1(CO)Cc2ncn(-c3ccc(C#N)c(Cl)c3)c2C(=O)O1	–	–	human	oral, 10 mg, fasted, single dose, geometric mean	–	Cmax	432 nM
COc1cc(Nc2ncc(F)c(Nc3ccc4c(n3)NC(=O)C(C)(C)O4)n2)cc(OC)c1OC	UTS2R (Homo sapiens, UniProt Q9UKP6)	–	–	–	–	IC50	> 10 µM
C[C@@H](O)[C@@H](CO)NC(=O)[C@@H](CCCNC(=N)N)NC(=O)[C@@H]1CCCN1C(=O)[C@@H]1CSSC[C@H](NC(=O)[C@H](Cc2ccccc2)NC(=O)CN2CCN(CC(=O)O)CCN(CC(=O)O)CCN(CC(=O)O)CC2)C(=O)N[C@@H](Cc2ccc(O)cc2)C(=O)N[C@@H](Cc2ccccc2)C(=O)N[C@@H](CCC(N)=O)C(=O)N[C@@H](CC(N)=O)C(=O)N1 [gallium-68 labelled]	–	–	healthy Wistar rat, small intestine	intravenous, 8 MBq, 60 min	–	tissue uptake	0.07 %ID/g
C[C@@H](NC(=O)N1C(=O)[C@H](Cc2ccnc(N)c2)[C@H]1C(=O)O)C1CCCCC1	–	–	healthy adult Chinese volunteers	continuous intravenous infusion, 0.3 mg/kg/h, 5-day infusion, CTCAE 5.0 grading	–	incidence of urine erythrocyte positive	0%
COc1ccc([C@@H](O)c2cc(-c3ncnc4cc(N5CCOCC5)ccc34)c(F)cc2Cl)nn1	–	–	patients, advanced solid tumours	oral, 250 mg twice daily, treatment-emergent, together with: avelumab	–	hypokalaemia incidence	3%
Cc1ccc(F)c2cc(C(=O)N[C@@H]3CCC[C@H](N4CC[C@H](N(C)S(C)(=O)=O)C4)C3)[nH]c12	–	–	CD1 mouse, plasma	oral, 30 mg/kg, 24 h	–	plasma concentration	0.719 ng/mL
O=C(Nc1ccccc1)C1CCN(C(=O)Oc2cccnc2)CC1	–	item: Constipation	healthy female human	concentration not given, all doses pooled	–	adverse event incidence	4%
O=C1Nc2cc3[nH]nc(-c4ccncc4)c3cc2CN1Cc1ccccc1	–	CTCAE v4.03	advanced solid tumour patients	intravenous, 7.2 mg/kg	–	patients with macular oedema	33%

For quick reference, copied from above:
Compound	target or system	test	test system	setting	how to read	endpoint	value
O=C(c1ccc(Cl)cc1)N1CCN2C(=O)N(OC(=O)N3CCOc4ccccc43)C(=O)C2C1 (stereo not shown)	TUBB (Homo sapiens, UniProt P07437)	MS-based ABPP	SW-620 conditioned medium	10 µM	baseline: compound over DMSO, lower = more inhibition	peptide ratio	1.07
